Measured values of several laboratories.
Every numbered part comes from another study and shows a few of its results, in no order.

Set 1 — method: protein-binding microarray; form: double-stranded DNA, one strand shown; sample: in vitro; concentration: 0.8 µM; setting: whole 60-bp probe, no competitor; reading: higher = stronger binding; quantity: fluorescence intensity
Target: Centromere-binding protein 1, full length, N-terminal tag (CBF1, Saccharomyces cerevisiae, UniProt P17106, residues 1-351)
Chain of UniProt P17106 (whole entry, looked up): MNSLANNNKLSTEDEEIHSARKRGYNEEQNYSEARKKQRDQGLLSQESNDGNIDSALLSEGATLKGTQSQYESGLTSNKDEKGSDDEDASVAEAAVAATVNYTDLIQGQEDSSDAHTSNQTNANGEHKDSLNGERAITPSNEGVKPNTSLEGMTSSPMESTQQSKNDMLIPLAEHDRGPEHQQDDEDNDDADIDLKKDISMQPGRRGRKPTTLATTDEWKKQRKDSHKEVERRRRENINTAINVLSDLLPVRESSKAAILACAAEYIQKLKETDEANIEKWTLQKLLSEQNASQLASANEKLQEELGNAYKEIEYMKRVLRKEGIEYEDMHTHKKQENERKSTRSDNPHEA
CTACTGGCCTCTGATCACGTTACTTTATTACCCTTCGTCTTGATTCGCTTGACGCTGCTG: 4570 a.u.
CTAGCTTCTTTATGCACCGTGGAGTAATTACCGTTCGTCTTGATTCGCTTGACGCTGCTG: 560 a.u.
CTAGCAGCTGGCTCATTCGTGCTGTACTCTCTTTTCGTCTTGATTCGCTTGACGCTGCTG: 537 a.u.
CCTAACTACTATAACCACGACTAATAGCTTCGTACAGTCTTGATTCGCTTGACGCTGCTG: 518 a.u.
CTATGGAGACCACATAATCACACGTGATAAATATTCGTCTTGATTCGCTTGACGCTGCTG: 13000 a.u.
CCTAACTACTATATACACGATGAATAGCTTCGTACAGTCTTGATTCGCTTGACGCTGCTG: 562 a.u.
GAACAGCCTCGTCATCACCCAATAAAGAGTTTATAGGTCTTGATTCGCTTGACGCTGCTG: 552 a.u.
GAAACAAATAGTTAGCATCAGGGAATTTGTATTTAGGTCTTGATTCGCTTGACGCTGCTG: 508 a.u.
GAATCATATCTTTCCCACGTGGCCTTAACTACGTAGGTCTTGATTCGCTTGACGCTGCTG: 5540 a.u.
CTAATTTCTTCCAATTGAGTCACGTCGCGTCCTTTCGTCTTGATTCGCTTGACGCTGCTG: 1010 a.u.
CTACTCAGCTATATCAACATCACGTTCTACCGCTTCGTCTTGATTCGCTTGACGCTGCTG: 1870 a.u.
GAATGAATTCAGCATCACCTAGTTATTAATGACTAGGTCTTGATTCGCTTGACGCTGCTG: 493 a.u.
GAAAGCCTTCTTTTCCACGTTTGTTTCAAAACTTAGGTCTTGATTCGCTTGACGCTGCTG: 563 a.u.
CTATAGGACTACCAACACATGCATGGATGCCAGTTCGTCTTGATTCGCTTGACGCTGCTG: 536 a.u.
GAATTCGTTTTATCTGATGTCATTCATTGATTGTAGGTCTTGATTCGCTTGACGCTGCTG: 532 a.u.
CTAAAATTTAACAATATGGTGAATTAAGTGTTGTTCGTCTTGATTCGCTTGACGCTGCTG: 504 a.u.
GAAGCGCGCCAACCTCACGTTTGCATTCTTGAATAGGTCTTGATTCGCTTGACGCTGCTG: 520 a.u.
CTAATTTCAGAGTTGCACGTTGGTATATCCTAATTCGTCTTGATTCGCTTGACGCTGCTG: 553 a.u.
TGTACGAAGCTATGACTAGTCACTATAGTAGTTAGGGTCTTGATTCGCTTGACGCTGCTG: 529 a.u.
CTAGAGCACTACCATGACGTCATTAACGTAAAATTCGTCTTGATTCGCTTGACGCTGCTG: 511 a.u.
CTATAGCAGAACAAACACATGATATATTCAAAATTCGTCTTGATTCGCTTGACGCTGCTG: 881 a.u.

Set 2 — method: protein-binding microarray; form: double-stranded DNA, one strand shown; sample: in vitro; concentration: not given; reading: higher = stronger binding; quantity: E-score
Target: TATA-box-binding protein 1 (TBP1, Arabidopsis thaliana, UniProt P28147, residues 1-200, full length assumed)
Setting: k-mer, scored over probes, only values ≥0.25
Residues (chain): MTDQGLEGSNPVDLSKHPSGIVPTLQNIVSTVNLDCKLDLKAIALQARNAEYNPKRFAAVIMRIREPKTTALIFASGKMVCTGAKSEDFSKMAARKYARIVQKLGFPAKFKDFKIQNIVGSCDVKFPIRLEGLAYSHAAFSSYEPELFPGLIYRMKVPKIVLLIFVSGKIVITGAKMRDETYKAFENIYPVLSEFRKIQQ
ATCTAAA: 0.258
ACCTTAT: 0.287
ATAAGAG: 0.34
ATATGTA: 0.412
GATTTAA: 0.395
ACCATAT: 0.326
ATATACA: 0.416
ACGTATA: 0.313
AAGTTAT: 0.265
ATAAAAT: 0.435
GCATAAA: 0.365
ATCCTTA: 0.281
CGTTTTA: 0.307
TAAATGA: 0.365
CGTAATA: 0.254
AAAACGT: 0.271
AGCTTAA: 0.268
ATAATCA: 0.286

Set 3 — method: protein binding microarray; form: double-stranded DNA, one strand shown; sample: in vitro; concentration: not given; baseline: not given; reading: higher = stronger binding; quantity: E-score
Target: Histone acetyltransferase KAT6A, winged helix 1, GST fusion (KAT6A, Homo sapiens, UniProt Q92794, residues 1-85)
Setting: 8-mer, flanks averaged, mean of 2 arrays, mostly near background
Target sequence (chain): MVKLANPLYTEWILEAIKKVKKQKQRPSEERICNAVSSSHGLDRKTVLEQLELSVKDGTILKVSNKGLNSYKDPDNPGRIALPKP
ACTACTCA: -0.176
ACCCGAAT: 0.0702
GCCTAGTA: 0.00191
AGACGGAC: 0.132
ACCACTAT: -0.246
ACCTAACA: -0.124
GTCTGGGA: -0.239
AAGCTACT: -0.126
ATAACTTC: -0.144
CCTTCACG: 0.15
AAGGCGCG: 0.375
AAGCCCAT: -0.183
ATGTTGGC: 0.0592
GCTCGTCA: 0.046
ACGAAATC: -0.0335
ACGCGCAG: 0.291
GCGACTCC: 0.219
TCACTAGA: -0.0175
GCTTTGAA: -0.142
GATCCCGA: 0.076
CAGGCAGA: -0.184
AGACCCGG: 0.3
ATAGGGGG: -0.148
TAAATAAA: -0.0668

Set 4 — method: RNA Bind-n-Seq; form: RNA; sample: in vitro; concentration: 200 nM; setting: whole 134-nt RNA, ends assumed; together with: 150 mM KCl; baseline: input library; reading: higher = stronger binding; quantity: log2 enrichment
Target: Ras GTPase-activating protein-binding protein 1, full length (G3BP1, Homo sapiens, UniProt Q13283)
Chain of UniProt Q13283 (whole entry, looked up): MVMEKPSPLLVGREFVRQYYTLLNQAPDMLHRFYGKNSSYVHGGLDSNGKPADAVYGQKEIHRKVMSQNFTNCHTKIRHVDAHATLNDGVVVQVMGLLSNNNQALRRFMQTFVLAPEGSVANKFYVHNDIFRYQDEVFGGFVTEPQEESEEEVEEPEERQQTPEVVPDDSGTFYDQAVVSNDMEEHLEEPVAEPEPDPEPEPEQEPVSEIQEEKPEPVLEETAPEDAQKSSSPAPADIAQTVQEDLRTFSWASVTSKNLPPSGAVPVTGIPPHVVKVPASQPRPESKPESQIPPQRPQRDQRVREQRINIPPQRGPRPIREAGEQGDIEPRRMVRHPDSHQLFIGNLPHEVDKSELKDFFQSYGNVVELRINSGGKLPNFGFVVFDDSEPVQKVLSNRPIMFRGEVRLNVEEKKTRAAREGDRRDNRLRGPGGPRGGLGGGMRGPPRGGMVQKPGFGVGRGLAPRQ
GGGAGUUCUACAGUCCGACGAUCCCUGUGCUACACAUCGUAUGUACCGAAUCGGGUUUUUUUGGUUUUUUUGGUUUUUUUGGGAAAGUAUUAUGUUACGCCGUUCGGAUCUGCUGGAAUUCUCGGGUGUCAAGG: -1.09
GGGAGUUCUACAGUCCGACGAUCUCAAGUCCUGUGCUACACAUCGUAUGUACCGAAUCGGGAAGGGAAGGGGAAGGGGAAAGUAUUAUGUUACGCCGUUCGGAUCUGCACUUCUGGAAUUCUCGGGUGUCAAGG: 1.06
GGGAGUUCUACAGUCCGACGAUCCCUGUGCUACACAUCGUAUGUACCGAAUCGGGGAAAAAAAGGAAAAAAAGGAAAAAAAGGAAAGUAUUAUGUUACGCCGUUCGGAUCUGCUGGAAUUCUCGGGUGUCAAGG: -0.372
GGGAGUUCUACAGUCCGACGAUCCACAGACAACACGCACCCACACAGACACAGAGGGAAGGGGUUGGGAUGGGGACAGGGUGCACAGCAGGGCGGGGUAGGAUCCCAGCCCCUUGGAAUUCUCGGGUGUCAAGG: 1.79
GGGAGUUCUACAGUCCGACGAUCAGUCCUGUGCUACACAUCGUAUGUACCGAAUCGGGGCCCCCGGGCCCCCGGCCCCCGGAAAGUAUUAUGUUACGCCGUUCGGAUCUGCACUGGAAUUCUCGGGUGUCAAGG: -0.928
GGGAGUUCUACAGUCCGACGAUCUAACUUUAGAGGAGGAUCUGAUGGCUAUGGCAGUGGACGUGGAUUUGGGGAUGGCUAUAAUGGGUAUGGAGGAGGACCUGGAGGUGGCAAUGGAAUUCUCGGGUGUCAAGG: 0.306
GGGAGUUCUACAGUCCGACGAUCCCUGUGCUACACAUCGUAUGUACCGAAUCAAACCCCCCCAAAUUUUUAAAUUUUUUUAAAAAAGUAUUAUGUUACGCCGUUCGGAUCUGCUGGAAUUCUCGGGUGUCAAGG: 0.232
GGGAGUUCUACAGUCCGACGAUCGCAGGAAGUAAAAACAAAUGGAAAUGCUUCGGAUAGUGGCAGGGGUGGGGGUUGCUAAGGAAAGGGUGGGAUGGGAGUGGGUGAAGAGUUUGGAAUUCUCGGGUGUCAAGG: 0.929
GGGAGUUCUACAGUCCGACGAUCGCAGGAAGUAAAAACAAAUGGAAAUGGUUCGGAUAGUGGCAGGGGUGGGGGUUGCUAAGGAAAGGGUGGGAUGGGAGUGGGUAAAGAGUUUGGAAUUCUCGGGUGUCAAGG: 1.14
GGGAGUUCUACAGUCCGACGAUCAAGUCCUGUGCUACACAUCGUAUGUACCGAAUCGGGUGGGAAAAAAAGGGUUUGGGAAAGUAUUAUGUUACGCCGUUCGGAUCUGCACUUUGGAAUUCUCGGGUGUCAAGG: 0.207
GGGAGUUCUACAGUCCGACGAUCGUCCUGUGCUACACAUCGUAUGUACCGAAUCAAACCCCCCCAAAUUUAAAUUUUUAAAAAAGUAUUAUGUUACGCCGUUCGGAUCUGCACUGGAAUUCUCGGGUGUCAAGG: 0.278
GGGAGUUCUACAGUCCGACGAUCCUGUGCUACACAUCGUAUGUACCGAAUCGGGGUUUUUUUGGGGUUUUUGGGGUUUUUGGGGAAAGUAUUAUGUUACGCCGUUCGGAUCUGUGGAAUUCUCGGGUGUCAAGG: -0.513
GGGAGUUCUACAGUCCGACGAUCCAAGUCCUGUGCUACACAUCGUAUGUACCGAAUCGGAAAAGGGAAAAGGAAAAGGAAAGUAUUAUGUUACGCCGUUCGGAUCUGCACUUCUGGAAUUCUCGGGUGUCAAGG: -0.974
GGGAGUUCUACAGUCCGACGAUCUGGUUUGAGUCCAGCCAAUGACACUGGAGCCAAAAAGAAGAAAAAGAAACAAAAAAAGAAGAAAGAAAAAGGCAGUGAGACAGAUUCAGCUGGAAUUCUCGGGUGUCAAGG: 0.0621

Set 5 — method: RNAcompete; form: RNA; sample: in vitro; concentration: 20 nM; setting: 7-mer, probes averaged, single round; baseline: mean of 7-mers; reading: higher = stronger binding; quantity: 7-mer Z-score
Target: PABPC1L2, full length, GST fusion (mouse, UniProt A0ABA7IW68)
Construct (chain): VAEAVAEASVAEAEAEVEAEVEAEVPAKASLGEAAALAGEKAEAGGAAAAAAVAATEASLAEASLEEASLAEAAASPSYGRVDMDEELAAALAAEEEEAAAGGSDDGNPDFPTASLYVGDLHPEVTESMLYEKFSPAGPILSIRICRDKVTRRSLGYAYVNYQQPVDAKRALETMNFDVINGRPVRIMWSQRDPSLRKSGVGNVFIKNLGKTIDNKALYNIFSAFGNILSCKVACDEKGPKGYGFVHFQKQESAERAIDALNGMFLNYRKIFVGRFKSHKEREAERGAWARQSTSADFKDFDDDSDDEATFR
ACCGGGC: 0.209
AACUGCA: 0.0116
GACAGAG: 0.124
UAUCGGA: 0.113
GCUGGUC: -0.0536
CUCUGUA: -0.193
AUCCUUC: -0.351
GAUCUAG: -0.162
AGACAGG: -0.128
ACGCUAU: -0.191
GCUCUGU: -0.313
CUAGUGU: -0.271
UAAGGAG: 0.0569
CGUAGGG: 0.017
CUGUGUU: -0.376
UUAUAGC: -0.0953
AAAUGAC: 0.932
GAUCUUA: -0.258
GACCUAG: -0.15
CGUGAAG: -0.157
UUCAACU: -0.315
AAUGCUC: 0.00436

Set 6 — method: universal PBM; form: double-stranded DNA, one strand shown; sample: in vitro; concentration: 600 nM; reading: higher = stronger binding; quantity: E-score
Target: Sal-like protein 4, full length isoform A (SALL4, Homo sapiens, UniProt Q9UJQ4, residues 1-1053)
Chain of UniProt Q9UJQ4 (whole entry, looked up): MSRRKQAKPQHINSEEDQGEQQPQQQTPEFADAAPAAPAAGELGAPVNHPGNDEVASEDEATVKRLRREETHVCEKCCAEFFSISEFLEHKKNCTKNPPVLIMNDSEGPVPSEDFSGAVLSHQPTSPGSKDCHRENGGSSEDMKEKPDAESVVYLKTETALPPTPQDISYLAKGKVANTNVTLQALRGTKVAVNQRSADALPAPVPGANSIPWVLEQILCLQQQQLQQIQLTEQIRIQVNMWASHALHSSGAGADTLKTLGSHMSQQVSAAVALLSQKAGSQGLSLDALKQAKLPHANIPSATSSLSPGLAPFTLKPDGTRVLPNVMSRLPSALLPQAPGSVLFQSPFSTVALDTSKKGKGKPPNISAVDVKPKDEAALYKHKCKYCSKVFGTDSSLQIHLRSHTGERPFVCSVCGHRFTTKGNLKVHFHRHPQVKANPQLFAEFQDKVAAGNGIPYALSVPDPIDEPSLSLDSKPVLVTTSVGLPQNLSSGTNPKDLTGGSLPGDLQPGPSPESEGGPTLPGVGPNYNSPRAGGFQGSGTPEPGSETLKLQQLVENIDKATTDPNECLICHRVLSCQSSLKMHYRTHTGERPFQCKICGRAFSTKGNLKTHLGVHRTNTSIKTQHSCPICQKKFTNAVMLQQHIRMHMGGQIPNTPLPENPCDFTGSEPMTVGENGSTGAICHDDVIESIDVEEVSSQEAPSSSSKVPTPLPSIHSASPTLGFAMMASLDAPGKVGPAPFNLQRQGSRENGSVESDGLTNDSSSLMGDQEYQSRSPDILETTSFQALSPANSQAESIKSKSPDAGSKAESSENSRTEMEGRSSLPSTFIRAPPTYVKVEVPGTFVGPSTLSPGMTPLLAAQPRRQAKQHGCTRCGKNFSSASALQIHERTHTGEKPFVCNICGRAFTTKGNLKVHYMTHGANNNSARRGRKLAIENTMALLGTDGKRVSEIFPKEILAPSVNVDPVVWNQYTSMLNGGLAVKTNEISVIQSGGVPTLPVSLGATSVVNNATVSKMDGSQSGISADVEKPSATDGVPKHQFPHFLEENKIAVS
Setting: 8-mer, flanks averaged, mean of replicates
AGCGTATG: -0.0341
AATTTTAG: 0.236
AACTTATC: 0.161
AAGTAAGT: 0.136
CGCGTTAA: -0.141
CTTAGATC: -0.0666
CCTGACTC: -0.187
CCGACTCG: -0.192
ATGGGCAG: -0.178
CGCTCGCC: -0.309
CGACGCTA: -0.123
CCTAAGGA: 0.002
CTGGAATA: 0.17
ACCCTGTA: -0.00087
CGTGGCAC: -0.201
CATAGCTC: -0.0684
CGACAGCA: -0.0965
GTTACAAA: 0.226
TCTCGACA: 0.0867
ACGGGATA: 0.025
ATATAGGG: 0.124
ATCTCGAG: -0.0011
CCTCATTC: -0.102
AGTGTCGC: -0.181
GCATTTTA: 0.266

A few entries again (set 6):
AACTTATC: 0.161
AAGTAAGT: 0.136
CATAGCTC: -0.0684
CGACAGCA: -0.0965
CCTAAGGA: 0.002
CGACGCTA: -0.123
GCATTTTA: 0.266
AGCGTATG: -0.0341
CGCGTTAA: -0.141
ATATAGGG: 0.124
